Results gathered from unrelated publications.
Protocols differ between the studies behind these lines. Values joined by “and” are separate records of one study, mostly repeats; a detail may differ.

COc1ccc2c(=O)n(C)c(-c3ccccc3)nc2c1 — tissue/plasma ratio (Sprague-Dawley rat, male, heart; oral, 30 mg/kg, 0.5 h; baseline: heart over plasma): 0.66
NC(=O)N1c2ccccc2C=Cc2ccccc21 — adverse events incidence (measured: conjunctival haemorrhage; human male; oral, dose not given, CTCAE on-treatment AEs): 7%
CC1(C)CC[C@]2(NC(=O)C(C)(F)F)CC[C@]3(C)[C@H](C(=O)C=C4[C@@]5(C)C=C(C#N)C(=O)C(C)(C)[C@@H]5CC[C@]43C)[C@@H]2C1 — trough plasma concentration (human, plasma; oral, 150 mg, day 21 predose, mean): 33.5 ng/mL
NC1(C(=O)N[C@@H](CCO)c2ccc(Cl)cc2)CCN(c2nc[nH]c3nccc2-3)CC1 — Tmax (LC-MS/MS, non-compartmental; human patients, plasma; 160/480 mg cohort, cycle 2, geometric mean, added: enzalutamide): 1.8 h
CCCC[C@H](NC(=O)[C@@H](NC(=O)[C@H](CCC(=O)O)NC(=O)CNC(=O)[C@@H](NC(=O)[C@H](Cc1ccccc1)NC(=O)[C@H](C)NC(=O)[C@H](CCCCN)NC(=O)CNC(=O)[C@H](Cc1ccccc1)NC(=O)[C@H](CCCCN)NC(=O)[C@H](CCCCN)NC(=O)[C@H](C)NC(=O)[C@]1(C)CCCC=CCCC[C@](C)(NC(=O)CNC(=O)[C@@H](NC(=O)CN)[C@@H](C)CC)C(=O)N[C@@H](Cc2ccccc2)C(=O)N[C@@H](CC(C)C)C(=O)N[C@@H](Cc2c[nH]cn2)C(=O)N1)C(C)C)[C@@H](C)CC)C(=O)N[C@@H](CC(N)=O)C(=O)N[C@@H](CO)C(N)=O — retention time (HPLC C18 column): 14.2 min
C=CC[C@@H]1/C=C(\C)C[C@H](C)C[C@H](OC)[C@H]2O[C@@](O)(C(=O)C(=O)N3CCCC[C@H]3C(=O)O[C@H](/C(C)=C/[C@@H]3CC[C@@H](O)[C@H](OC)C3)[C@H](C)[C@@H](O)CC1=O)[C@H](C)C[C@@H]2OC — Vz/F (healthy adults; oral, geometric mean): 881 L and 1370 L
O=C(c1cccnc1-c1ccncc1)N1CCC(O)(Cc2ccccc2)CC1 — Vz/F (healthy Japanese adults, plasma; oral, 200 mg single dose): 4260 L
C[C@@H]1CCO[C@H]2Cn3cc(C(=O)NCc4ccc(F)cc4F)c(=O)c(O)c3C(=O)N12 — AUC(0-24) (population PK, post-hoc; children, 20 to <25 kg, plasma; oral, 16 mg granules, steady state, geometric mean): 43600 ng·h/mL
CC(=O)c1ccco1 — inhibition (THP-1; pyroptotic LDH release; 2 µM, 40 min, added: LPS then nigericin): 7.87%
Cn1cc(Nc2nccc(-c3ccc4c(c3)CN(C3COC3)CC[C@H]4NC(=O)c3cn(C(C)(C)C)nn3)n2)cn1 — lymphocyte count change (human, whole blood; 300 mg twice daily, day 7; baseline: pre-dose baseline): 5.05%
Fc1ccccc1-c1nc2ccn(Cc3ccc(-c4ccc(C(F)(F)F)cc4C(F)(F)F)nn3)cc-2n1 — inhibition (THP-1; pyroptotic LDH release; 2 µM, 40 min, added: LPS then nigericin): 21.6%
CC(C)(C(=O)N1CCOc2c(C#N)cncc2C1)C(F)F — subjects with adverse event (measured: abdominal pain; human; oral, 15 mg twice daily, 14 days, multiple ascending dose): 0%
C=C1C[C@@H]2[C@H](CC[C@]3(C)C(=O)CC[C@@H]23)[C@@]2(C)C=CC(=O)C=C12 — share of modified total metabolites (postmenopausal women, serum; oral, 25 mg daily, 1 year, UGT2B17 and GSTA1 genotypes): 25%
OC[C@H]1O[C@@H](c2ccc(F)c(Cc3cc4ccccc4s3)c2)[C@H](O)[C@@H](O)[C@@H]1O — hypoglycaemia adverse events (Japanese type 1 diabetes patients; oral, 25 mg/day, day 14): 5 % patients
CN1CCC(COc2cnc(-c3cccc(Cn4nc(-c5cccc(C#N)c5)ccc4=O)c3)nc2)CC1 — dose-adjusted solubility (FaSSIF; literature solubility over dose): 0.00243 mL⁻¹
O=C(O)C[C@H](O)C[C@H](O)/C=C/c1c(C2CC2)nc2ccccc2c1-c1ccc(F)cc1 — AUC(0-12h) (OATP1B1/1B3 humanized mouse, plasma; oral, 5 mg/kg, geometric mean): 0.614 µM·h
O=C(Nc1nc2cccc(-c3ccc(CN4CCS(=O)(=O)CC4)cc3)n2n1)C1CC1 — treatment-emergent adverse events (measured: investigations; human rheumatoid arthritis patients; oral, 300 mg once daily, 4 weeks, regardless of relatedness): 0%
CCN1CCN(Cc2ccc(Nc3ncc(F)c(-c4cc(F)c5nc6n(c5c4)[C@H](C)CCC6)n3)nc2)CC1 — CL/F (human, plasma; 400 mg multiple dosing, mean): 52.7 L/h
Cc1cc(-c2nccc3c2ccn3CC(=O)Nc2ccc(-c3cnccn3)cn2)ccn1 — subjects with Costochondritis adverse event (human; 20 mg once daily, multiple ascending dose): 0%
